{"data": "Values quoted from earlier work that unrelated publications cite", "ADORA1": "Adenosine receptor A1 (ADORA1, Homo sapiens, UniProt P30542)", "lasR": "Transcriptional activator protein LasR (lasR, Pseudomonas aeruginosa, UniProt P25084)", "BCHE": "Cholinesterase (BCHE, Homo sapiens, UniProt P06276)", "note": "± gives the spread as reported.", "UniProt P06276, sequence (whole entry, looked up)": "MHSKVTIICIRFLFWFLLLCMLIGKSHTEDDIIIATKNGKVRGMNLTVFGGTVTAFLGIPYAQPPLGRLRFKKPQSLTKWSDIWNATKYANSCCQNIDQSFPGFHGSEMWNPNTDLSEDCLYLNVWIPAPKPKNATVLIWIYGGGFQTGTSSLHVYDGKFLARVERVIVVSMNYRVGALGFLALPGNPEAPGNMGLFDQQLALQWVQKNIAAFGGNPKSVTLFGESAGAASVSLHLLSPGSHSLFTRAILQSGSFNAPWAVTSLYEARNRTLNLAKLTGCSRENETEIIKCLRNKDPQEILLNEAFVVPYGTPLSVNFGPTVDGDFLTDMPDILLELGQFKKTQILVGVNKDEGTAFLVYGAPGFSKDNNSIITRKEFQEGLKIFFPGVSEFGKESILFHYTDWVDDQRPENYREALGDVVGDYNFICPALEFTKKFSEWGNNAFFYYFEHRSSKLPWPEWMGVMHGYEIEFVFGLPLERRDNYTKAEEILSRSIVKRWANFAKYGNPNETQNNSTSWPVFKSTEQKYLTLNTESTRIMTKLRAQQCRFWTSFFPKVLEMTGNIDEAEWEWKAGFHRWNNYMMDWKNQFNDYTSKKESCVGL", "UniProt P25084, sequence (whole entry, looked up)": "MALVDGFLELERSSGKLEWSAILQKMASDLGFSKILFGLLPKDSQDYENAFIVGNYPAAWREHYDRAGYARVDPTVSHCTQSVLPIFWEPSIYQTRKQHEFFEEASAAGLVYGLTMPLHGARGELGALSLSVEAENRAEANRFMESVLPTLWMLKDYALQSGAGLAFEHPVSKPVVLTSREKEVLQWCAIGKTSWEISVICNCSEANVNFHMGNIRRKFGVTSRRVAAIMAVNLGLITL", "UniProt P30542, sequence (whole entry, looked up)": "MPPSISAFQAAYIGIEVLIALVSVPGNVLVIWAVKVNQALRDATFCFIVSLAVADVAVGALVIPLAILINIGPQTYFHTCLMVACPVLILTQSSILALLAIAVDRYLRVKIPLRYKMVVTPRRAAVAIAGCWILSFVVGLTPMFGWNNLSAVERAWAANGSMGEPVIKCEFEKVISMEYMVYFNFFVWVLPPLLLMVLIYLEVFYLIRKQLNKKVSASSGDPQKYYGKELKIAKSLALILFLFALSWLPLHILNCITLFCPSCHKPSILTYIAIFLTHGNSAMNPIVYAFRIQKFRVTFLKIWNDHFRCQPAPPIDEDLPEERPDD", "UniProt Q99895, sequence (whole entry, looked up)": "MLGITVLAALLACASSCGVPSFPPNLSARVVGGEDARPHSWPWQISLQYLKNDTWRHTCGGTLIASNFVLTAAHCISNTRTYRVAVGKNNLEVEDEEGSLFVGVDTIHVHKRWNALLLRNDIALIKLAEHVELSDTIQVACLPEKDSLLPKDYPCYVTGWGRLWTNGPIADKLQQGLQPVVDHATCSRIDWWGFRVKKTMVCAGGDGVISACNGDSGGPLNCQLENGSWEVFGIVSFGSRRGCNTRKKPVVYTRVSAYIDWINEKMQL", "UniProt P22303, sequence (whole entry, looked up)": "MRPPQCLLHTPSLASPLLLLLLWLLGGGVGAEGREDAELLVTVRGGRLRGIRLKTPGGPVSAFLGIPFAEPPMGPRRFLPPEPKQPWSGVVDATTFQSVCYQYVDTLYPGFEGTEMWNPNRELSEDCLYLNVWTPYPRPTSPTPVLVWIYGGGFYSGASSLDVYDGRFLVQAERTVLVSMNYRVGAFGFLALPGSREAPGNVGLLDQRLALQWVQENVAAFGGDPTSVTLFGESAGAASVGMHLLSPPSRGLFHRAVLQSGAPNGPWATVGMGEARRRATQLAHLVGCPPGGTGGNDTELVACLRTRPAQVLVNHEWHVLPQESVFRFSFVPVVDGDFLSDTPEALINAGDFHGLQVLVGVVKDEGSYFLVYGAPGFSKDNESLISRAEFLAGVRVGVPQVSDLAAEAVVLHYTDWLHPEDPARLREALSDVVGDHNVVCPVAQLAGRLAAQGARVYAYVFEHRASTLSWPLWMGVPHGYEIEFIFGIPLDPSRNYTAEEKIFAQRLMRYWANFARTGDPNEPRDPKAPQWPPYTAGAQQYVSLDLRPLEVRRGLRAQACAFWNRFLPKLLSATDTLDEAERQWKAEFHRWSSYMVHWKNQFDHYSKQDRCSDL", "UniProt P28335, sequence (whole entry, looked up)": "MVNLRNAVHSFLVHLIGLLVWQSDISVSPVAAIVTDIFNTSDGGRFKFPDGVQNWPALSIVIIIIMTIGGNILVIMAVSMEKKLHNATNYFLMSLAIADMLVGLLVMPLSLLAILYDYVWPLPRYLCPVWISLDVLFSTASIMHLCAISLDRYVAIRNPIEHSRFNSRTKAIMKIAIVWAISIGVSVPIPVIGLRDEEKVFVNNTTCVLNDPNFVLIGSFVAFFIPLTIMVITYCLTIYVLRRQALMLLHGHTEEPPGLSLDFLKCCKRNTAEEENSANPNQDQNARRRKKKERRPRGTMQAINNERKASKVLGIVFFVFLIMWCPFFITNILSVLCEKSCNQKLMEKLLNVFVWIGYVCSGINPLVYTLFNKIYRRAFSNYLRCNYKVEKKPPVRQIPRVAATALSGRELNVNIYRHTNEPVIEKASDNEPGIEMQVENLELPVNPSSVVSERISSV", "UniProt P41595, sequence (whole entry, looked up)": "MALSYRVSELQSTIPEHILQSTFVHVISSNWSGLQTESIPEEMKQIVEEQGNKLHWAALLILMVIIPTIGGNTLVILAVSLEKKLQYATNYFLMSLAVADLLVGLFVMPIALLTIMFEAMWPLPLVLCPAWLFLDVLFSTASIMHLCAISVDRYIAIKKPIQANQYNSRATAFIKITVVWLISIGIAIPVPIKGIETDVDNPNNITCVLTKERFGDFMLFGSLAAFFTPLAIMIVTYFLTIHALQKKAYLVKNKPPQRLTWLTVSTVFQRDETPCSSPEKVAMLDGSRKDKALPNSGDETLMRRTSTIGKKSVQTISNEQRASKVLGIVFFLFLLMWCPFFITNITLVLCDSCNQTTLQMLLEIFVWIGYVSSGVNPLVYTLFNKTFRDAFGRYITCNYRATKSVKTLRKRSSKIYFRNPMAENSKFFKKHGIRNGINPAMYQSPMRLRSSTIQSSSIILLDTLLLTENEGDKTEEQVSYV"}
{"Structure (SMILES)": "OC[C@@]12C[C@@H]1[C@@H](n1cnc3c(N[C@@H](C4CCC4)C4CC4)nc(Cl)nc31)[C@H](O)[C@@H]2O", "target or system": "ADORA1", "test": "binding", "setting": "added: [3H]R-PIA", "endpoint": "Ki", "value": "144 ± 32 nM"}
{"Structure (SMILES)": "CCCCCCCCCC(=O)CC(=O)NC1CCCCC1=O (stereo not shown)", "target or system": "lasR", "test": "lasI-gfp reporter, partial agonist", "test system": "Pseudomonas aeruginosa PAO-JP2", "setting": "400 µM", "endpoint": "activation", "value": "45%"}
{"Structure (SMILES)": "CC[C@H](C)[C@H](NC(=O)CNC(=O)[C@H](CCC(N)=O)NC(=O)[C@@H](NC(=O)[C@H](C)NC(=O)[C@H](CCC(N)=O)NC(=O)[C@H](C)NC(=O)[C@@H](NC(=O)[C@H](C)NC(=O)[C@H](CCCNC(=N)N)NC(=O)[C@H](Cc1ccccc1)NC(=O)[C@H](C)NC(=O)[C@H](CC(N)=O)NC(=O)[C@H](CCCCN)NC(=O)CNC(=O)[C@H](C)NC(=O)[C@H](CCCCN)NC(=O)[C@H](CCC(=O)O)NC(=O)[C@@H](NC(=O)[C@H](CCCCN)NC(=O)[C@H](CCCCN)NC(=O)CN)[C@@H](C)CC)C(C)C)C(C)C)C(=O)NCC(=O)N[C@@H](Cc1ccccc1)C(=O)N[C@@H](C)C(=O)N[C@@H](CCCNC(=N)N)C(=O)N[C@@H](C)C(=O)N[C@@H](CC(C)C)C(=O)NCC(=O)N[C@H](C(=O)N[C@@H](C)C(=O)N[C@H](C(=O)N[C@@H](CC(=O)O)C(=O)O)C(C)C)[C@@H](C)CC", "target or system": "Pseudomonas aeruginosa", "endpoint": "MIC", "value": "4 µM"}
{"Structure (SMILES)": "C[C@@H]1CN([C@@H](c2cccc(O)c2)c2cccc(C(=O)N(C)c3cccc(F)c3)c2)[C@@H](C)CN1Cc1ccccc1", "target or system": "mu opioid receptor rat", "endpoint": "Ki", "value": "1.58 nM"}
{"Structure (SMILES)": "CNC(=O)[C@@]12C[C@@H]1[C@@H](n1cnc3c(NC(C4CC4)C4CC4)nc(Cl)nc31)[C@H](O)[C@@H]2O", "target or system": "5-hydroxytryptamine receptor 2C (HTR2C, Homo sapiens, UniProt P28335)", "test": "binding", "setting": "added: [3H]mesulergine", "endpoint": "Ki", "value": "269 nM"}
{"Structure (SMILES)": "COc1cc2c(cc1O)C(CCc1ccc(Cl)cc1)N(C)CC2 (stereo not shown)", "target or system": "Glutamate NMDA receptor; Grin1/Grin2b (Grin1/Grin2b, Rattus norvegicus, UniProt P35439+Q00960)", "test": "binding", "endpoint": "Ki", "value": "20 ± 3 nM"}
{"Structure (SMILES)": "O=C(Cc1ccccc1Cl)Cn1cc(COC2=CC(=O)c3ccccc3C2=O)nn1", "target or system": "Acetylcholinesterase (ACHE, Homo sapiens, UniProt P22303)", "test": "inhibitor", "endpoint": "Ki", "value": "10.2 nM"}
{"Structure (SMILES)": "CC(=O)OC12COC1CC(O)C1(C)C(=O)C(OC(=O)N(C)C)C3=C(C)C(OC(=O)C(O)C(C=C(C)C)NC(=O)OC(C)(C)C)CC(O)(C(OC(=O)c4cccc(OC(F)F)c4)C21)C3(C)C (stereo not shown)", "target or system": "MCF7", "test": "cytotoxicity", "endpoint": "IC50", "value": "0.56 nM"}
{"Structure (SMILES)": "COC(=O)C1C(c2ccc(Cl)c(Cl)c2)CC2CCC1[S+]2[O-] (stereo not shown)", "target or system": "dopamine transporter", "test": "binding", "endpoint": "Ki", "value": "5.3 nM"}
{"Structure (SMILES)": "CC(C)CCCC(C)C1CCC2C3CCC4CC(OC5OC(COS(=O)(=O)O)C(OS(=O)(=O)O)C(OS(=O)(=O)O)C5OC5OC(COS(=O)(=O)O)C(OS(=O)(=O)O)C(OC6OC(COS(=O)(=O)O)C(OS(=O)(=O)O)C(OC7OC(COS(=O)(=O)O)C(OS(=O)(=O)O)C(OS(=O)(=O)O)C7OS(=O)(=O)O)C6OS(=O)(=O)O)C5OS(=O)(=O)O)CCC4(C)C3CCC12C (stereo not shown)", "target or system": "heparanase", "endpoint": "Ki", "value": "59 nM"}
{"Structure (SMILES)": "O=C(Cn1cc(COC2=CC(=O)c3ccccc3C2=O)nn1)NCc1ccccc1Cl", "target or system": "BCHE", "endpoint": "Ki", "value": "8.04 nM"}
{"Structure (SMILES)": "O=C(CCCOc1ccc(Cl)cc1)N[C@H]1CCOC1=O", "target or system": "lasR", "test": "reporter gene, antagonist, rsaL-gfp reporter", "setting": "1 mM", "endpoint": "inhibition", "value": "25%"}
{"Structure (SMILES)": "C=CCN1C[C@H](C)N([C@@H](c2cccc(O)c2)c2cccc(C(=O)N(C)c3cccc(F)c3)c2)C[C@H]1C", "target or system": "mu opioid receptor rat", "endpoint": "Ki", "value": "0.18 to 7.56 nM"}
{"Structure (SMILES)": "CC(C)[C@@H](Nc1nc(Cl)nc2c1ncn2[C@H]1[C@H](O)[C@H](O)[C@]2(CO)C[C@H]12)C1CC1", "target or system": "ADORA1", "test": "binding", "setting": "added: [3H]R-PIA", "endpoint": "Ki", "value": "103 ± 7 nM"}
{"Structure (SMILES)": "CSCC[C@@H]1NC(=O)[C@H](CC(C)C)NC(=O)[C@H]([C@@H](C)O)NC(=O)[C@@H]2CSSC[C@@H]3NC(=O)[C@H]([C@@H](C)O)NC(=O)[C@H](CC(N)=O)NC(=O)[C@H](CSSC[C@@H](C(=O)N[C@@H](CC(=O)O)C(=O)N[C@@H](CCC(N)=O)C(=O)O)NC(=O)[C@H](CC(C)C)NC1=O)NC(=O)[C@H](CCCCN)NC(=O)[C@H](CC(=O)O)NC(=O)[C@H](CCCCN)NC(=O)[C@H](Cc1ccccc1)NC(=O)[C@H]([C@@H](C)O)NC(=O)[C@H]([C@@H](C)O)NC(=O)CNC(=O)[C@@H]1CCCN1C(=O)[C@H](CCC(=O)O)NC(=O)[C@@H](NC(=O)[C@@H](NC(=O)[C@@H](NC(=O)[C@H](CCC(=O)O)NC(=O)[C@H](CO)NC(=O)CN)C(C)C)[C@@H](C)O)CSSC[C@H](NC(=O)[C@H](CCCNC(=N)N)NC3=O)C(=O)NCC(=O)N[C@@H](CO)C(=O)N[C@@H](CC(=O)O)C(=O)NCC(=O)N[C@@H](CCCCN)C(=O)N[C@@H](CO)C(=O)N[C@@H](C)C(=O)N[C@@H](C)C(=O)N2", "target or system": "Chymotrypsin-C (Homo sapiens, UniProt Q99895)", "endpoint": "Ki", "value": "0.04 nM"}
{"Structure (SMILES)": "O=C(Cn1cc(CN2C(=O)C(=O)c3cc(F)ccc32)nn1)NCc1ccccc1Cl", "target or system": "BCHE", "endpoint": "Ki", "value": "8.04 nM"}
{"Structure (SMILES)": "CCOC(=O)[C@@]12C[C@@H]1[C@@H](n1cnc3c(NC(C4CC4)C4CC4)nc(Cl)nc31)[C@H](O)[C@@H]2O", "target or system": "5-hydroxytryptamine receptor 2B (HTR2B, Homo sapiens, UniProt P41595)", "test": "binding", "setting": "added: [3H]LSD", "endpoint": "Ki", "value": "15 nM"}
{"Structure (SMILES)": "O=C(Cn1cc(COc2ccc3ccc(=O)oc3c2)nn1)Nc1ccccc1Cl", "target or system": "BCHE", "test": "enzyme activity, inhibitor", "endpoint": "Ki", "value": "33.1 nM"}
{"Structure (SMILES)": "CC[C@H](C)[C@H](NC(=O)[C@@H](NC(=O)[C@H](C)NC(=O)[C@@H](NC(=O)[C@H](C)NC(=O)[C@@H]1CCCN1C(=O)CNC(=O)[C@H](C)NC(=O)[C@H](CC(N)=O)NC(=O)[C@H](CCCCN)NC(=O)[C@@H](NC(=O)[C@H](C)NC(=O)[C@H](CC(N)=O)NC(=O)[C@H](CCCNC(=N)N)NC(=O)[C@@H](NC(=O)[C@H](CCCNC(=N)N)NC(=O)[C@H](CCCNC(=N)N)NC(=O)[C@@H](NC(=O)[C@@H](NC(=O)[C@H](CCCCN)NC(=O)[C@H](CCC(=O)O)NC(=O)[C@H](CC(C)C)NC(=O)[C@H](CCCCN)NC(=O)[C@H](CCCCN)NC(=O)[C@H](CC(C)C)NC(=O)[C@@H]1CCCN1C(=O)[C@H](CCCCN)NC(=O)[C@H](Cc1c[nH]c2ccccc12)NC(=O)[C@@H](N)CCCNC(=N)N)C(C)C)C(C)C)C(C)C)C(C)C)C(C)C)C(C)C)C(=O)NCC(=O)N[C@@H](CC(=O)O)C(=O)O", "target or system": "Pseudomonas aeruginosa", "endpoint": "MIC", "value": "16 µM"}
{"note": "A few entries again:"}
{"Structure (SMILES)": "CSCC[C@@H]1NC(=O)[C@H](CC(C)C)NC(=O)[C@H]([C@@H](C)O)NC(=O)[C@@H]2CSSC[C@@H]3NC(=O)[C@H]([C@@H](C)O)NC(=O)[C@H](CC(N)=O)NC(=O)[C@H](CSSC[C@@H](C(=O)N[C@@H](CC(=O)O)C(=O)N[C@@H](CCC(N)=O)C(=O)O)NC(=O)[C@H](CC(C)C)NC1=O)NC(=O)[C@H](CCCCN)NC(=O)[C@H](CC(=O)O)NC(=O)[C@H](CCCCN)NC(=O)[C@H](Cc1ccccc1)NC(=O)[C@H]([C@@H](C)O)NC(=O)[C@H]([C@@H](C)O)NC(=O)CNC(=O)[C@@H]1CCCN1C(=O)[C@H](CCC(=O)O)NC(=O)[C@@H](NC(=O)[C@@H](NC(=O)[C@@H](NC(=O)[C@H](CCC(=O)O)NC(=O)[C@H](CO)NC(=O)CN)C(C)C)[C@@H](C)O)CSSC[C@H](NC(=O)[C@H](CCCNC(=N)N)NC3=O)C(=O)NCC(=O)N[C@@H](CO)C(=O)N[C@@H](CC(=O)O)C(=O)NCC(=O)N[C@@H](CCCCN)C(=O)N[C@@H](CO)C(=O)N[C@@H](C)C(=O)N[C@@H](C)C(=O)N2", "target or system": "Chymotrypsin-C (Homo sapiens, UniProt Q99895)", "endpoint": "Ki", "value": "0.04 nM"}
